{"data": "Published values from different studies", "note": "Numbered parts are unrelated; each lists some results of a single study. Substitutions count along the parent as printed."}
{"data": "Block 1", "target": "CRIPT, C-terminal peptide", "technique": "DHFR complementation, deep sequencing", "sample": "yeast", "setting": "single substitutions, model-inferred values", "relative to": "wild type", "direction": "higher = weaker binding", "starting sequence": "ERBIN, PDZ domain 1 (human); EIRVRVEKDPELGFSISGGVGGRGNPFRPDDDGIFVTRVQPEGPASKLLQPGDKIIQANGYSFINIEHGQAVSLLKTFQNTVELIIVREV; partner TKNYKQTSV"}
{"Change": "P51F", "binding free energy change [kcal/mol]": 0.303}
{"Change": "R23S", "binding free energy change [kcal/mol]": -0.848}
{"Change": "R23L", "binding free energy change [kcal/mol]": -0.0375}
{"Change": "L75R", "binding free energy change [kcal/mol]": 1.23}
{"Change": "L12H", "binding free energy change [kcal/mol]": 1.62}
{"Change": "F27L", "binding free energy change [kcal/mol]": 0.805}
{"Change": "F78T", "binding free energy change [kcal/mol]": 0.272}
{"Change": "I2K", "binding free energy change [kcal/mol]": 0.082}
{"data": "Block 2", "target": "Fragile X messenger ribonucleoprotein 1, C-terminal low-complexity region (Fmr1, Mus musculus, UniProt P35922)", "technique": "RNA Bind-n-Seq", "molecule type": "RNA", "sample": "in vitro", "concentration": "200 nM", "setting": "whole 134-nt RNA, ends assumed", "together with": "150 mM LiCl", "relative to": "input library", "direction": "higher = stronger binding", "all molecules": "7-deaza-guanosine replaces G", "constant ends, left off below": "GGGAGUUCUACAGUCCGACGAUC … UGGAAUUCUCGGGUGUCAAGG"}
{"Sequence": "AAGUCCUGUGCUACACAUCGUAUGUACCGAAUCGGGGUUUGGGUUUGGGGUUUGGGAAAGUAUUAUGUUACGCCGUUCGGAUCUGCACUU", "log2 enrichment": -1.53}
{"Sequence": "GCAGGAAGUUAAAACAAAUGGAAAUGCUUCGGAUAGUGGCAGGGGUGGGGGUUGCUAAGGAAAGGGUGGGAUGGGAGUGGGUAAAGAGUU", "log2 enrichment": 1.4}
{"Sequence": "UAACUUUAGAGGAGGAUCUGAUGGAUAUGGCAGUGGACGUGGAUUUGGGGAUGGCUAUAAUGGGUGUGGAGGAGGACCUGGAGGUGGCAA", "log2 enrichment": 0.751}
{"Sequence": "CACAGACAACACGCACCCACACAGACACAGAGGGAAGGGGUUGGAAAGGGGACAGGGUGCACAGCAGGGCGGGGUAGGACCCCAGCCCCU", "log2 enrichment": -0.191}
{"Sequence": "CACAGACAACACGCACCCACACAGACACAGAGGGAAGGGGAUGGGAUGGGGACAGGGUGCACAGCAGGGCGGGGUAGGACCCCAGCCCCU", "log2 enrichment": -0.628}
{"Sequence": "CUCAAGUCCUGUGCUACACAUCGUAUGUACCGAAUCGGCCGGGGCCGGGGCCGGAAAGUAUUAUGUUACGCCGUUCGGAUCUGCACUUCC", "log2 enrichment": 0.165}
{"Sequence": "CCUGUGCUACACAUCGUAUGUACCGAAUCGGGUUUUUGGGUUUUUUUGGGUUUUUUUGGGAAAGUAUUAUGUUACGCCGUUCGGAUCUGC", "log2 enrichment": -1.05}
{"Sequence": "GCAGGAAGUAGAAACAAAUGGAAAUGCUUCGGAUAGUGGCAGGGGUGGGGGUUGCUAAGGAAAGGGUGGGAUGGGAGUGGGUAAAGAGUU", "log2 enrichment": 1.96}
{"data": "Block 3", "target": "CCNB3, cyclin fold, Cln2 fusion (human)", "technique": "yeast growth competition, sequencing", "sample": "yeast", "setting": "strong parent motif", "relative to": "not given", "direction": "higher = stronger binding", "starting sequence": "viral docking peptide; TSVRRALFTGGSD; partner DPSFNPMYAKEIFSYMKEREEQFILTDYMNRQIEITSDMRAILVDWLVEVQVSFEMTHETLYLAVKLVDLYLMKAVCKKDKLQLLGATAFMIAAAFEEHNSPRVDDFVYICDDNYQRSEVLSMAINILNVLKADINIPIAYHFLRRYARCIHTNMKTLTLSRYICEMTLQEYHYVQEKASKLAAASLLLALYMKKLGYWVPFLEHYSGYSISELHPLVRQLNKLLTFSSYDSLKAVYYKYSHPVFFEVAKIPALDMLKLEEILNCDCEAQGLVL"}
{"Change": "TSVRRFLFTGGSD [A6F]", "normalised enrichment score": 0.382}
{"Change": "TSVRRAGFTGGSD [L7G]", "normalised enrichment score": 0.0662}
{"Change": "TSVRRALMTGGSD [F8M]", "normalised enrichment score": 0.0972}
{"data": "Block 4", "target": "UDP-N-acetylglucosamine--peptide N-acetylglucosaminyltransferase 110 kDa subunit (OGT, Homo sapiens, UniProt O15294)", "observed": "binding", "technique": "phage display NGS", "molecule type": "peptide", "concentration": "concentration not given", "relative to": "input library", "sequence of UniProt O15294 (whole entry, looked up)": "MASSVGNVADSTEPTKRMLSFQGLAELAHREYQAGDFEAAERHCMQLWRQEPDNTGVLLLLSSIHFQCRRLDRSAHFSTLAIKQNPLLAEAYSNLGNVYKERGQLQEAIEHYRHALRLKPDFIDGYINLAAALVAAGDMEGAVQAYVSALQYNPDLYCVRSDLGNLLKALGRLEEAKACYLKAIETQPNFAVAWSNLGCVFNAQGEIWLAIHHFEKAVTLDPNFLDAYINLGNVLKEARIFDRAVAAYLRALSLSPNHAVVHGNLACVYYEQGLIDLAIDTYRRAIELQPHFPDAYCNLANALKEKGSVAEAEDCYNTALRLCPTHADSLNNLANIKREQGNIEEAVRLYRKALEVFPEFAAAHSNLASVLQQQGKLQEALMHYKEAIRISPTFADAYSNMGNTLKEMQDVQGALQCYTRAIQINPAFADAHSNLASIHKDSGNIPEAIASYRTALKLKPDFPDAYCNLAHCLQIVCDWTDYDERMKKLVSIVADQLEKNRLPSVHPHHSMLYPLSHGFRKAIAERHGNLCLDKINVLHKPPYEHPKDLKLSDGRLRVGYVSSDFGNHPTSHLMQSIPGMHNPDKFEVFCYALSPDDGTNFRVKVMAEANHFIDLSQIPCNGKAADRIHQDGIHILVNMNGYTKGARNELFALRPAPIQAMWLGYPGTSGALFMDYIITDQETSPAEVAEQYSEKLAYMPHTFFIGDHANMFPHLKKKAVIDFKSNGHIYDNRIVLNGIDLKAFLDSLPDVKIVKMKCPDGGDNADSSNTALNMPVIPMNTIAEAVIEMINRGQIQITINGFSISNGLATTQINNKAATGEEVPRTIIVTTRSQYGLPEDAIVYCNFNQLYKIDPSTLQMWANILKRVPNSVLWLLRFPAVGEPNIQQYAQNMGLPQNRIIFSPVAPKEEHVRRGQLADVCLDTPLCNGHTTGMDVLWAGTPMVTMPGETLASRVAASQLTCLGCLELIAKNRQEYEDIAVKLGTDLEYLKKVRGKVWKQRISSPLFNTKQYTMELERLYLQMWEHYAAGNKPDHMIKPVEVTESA"}
{"Sequence": "WDYIPMYQIQSVRG", "enrichment fold change": 9.37}
{"Sequence": "HVNSRFWFHTQDHHP", "enrichment fold change": 4.17}
{"Sequence": "HWHPLHQQMPHDMGS", "enrichment fold change": 13}
{"note": "For quick reference, copied from above (block 3):"}
{"Change": "TSVRRFLFTGGSD [A6F]", "normalised enrichment score": 0.382}
{"Change": "TSVRRAGFTGGSD [L7G]", "normalised enrichment score": 0.0662}
{"Change": "TSVRRALMTGGSD [F8M]", "normalised enrichment score": 0.0972}
